{"data": "Measured values from different studies", "note": "Every numbered part comes from another study and shows a few of its results, in no order.", "sequence of UniProt Q9Y2H9 (whole entry, looked up)": "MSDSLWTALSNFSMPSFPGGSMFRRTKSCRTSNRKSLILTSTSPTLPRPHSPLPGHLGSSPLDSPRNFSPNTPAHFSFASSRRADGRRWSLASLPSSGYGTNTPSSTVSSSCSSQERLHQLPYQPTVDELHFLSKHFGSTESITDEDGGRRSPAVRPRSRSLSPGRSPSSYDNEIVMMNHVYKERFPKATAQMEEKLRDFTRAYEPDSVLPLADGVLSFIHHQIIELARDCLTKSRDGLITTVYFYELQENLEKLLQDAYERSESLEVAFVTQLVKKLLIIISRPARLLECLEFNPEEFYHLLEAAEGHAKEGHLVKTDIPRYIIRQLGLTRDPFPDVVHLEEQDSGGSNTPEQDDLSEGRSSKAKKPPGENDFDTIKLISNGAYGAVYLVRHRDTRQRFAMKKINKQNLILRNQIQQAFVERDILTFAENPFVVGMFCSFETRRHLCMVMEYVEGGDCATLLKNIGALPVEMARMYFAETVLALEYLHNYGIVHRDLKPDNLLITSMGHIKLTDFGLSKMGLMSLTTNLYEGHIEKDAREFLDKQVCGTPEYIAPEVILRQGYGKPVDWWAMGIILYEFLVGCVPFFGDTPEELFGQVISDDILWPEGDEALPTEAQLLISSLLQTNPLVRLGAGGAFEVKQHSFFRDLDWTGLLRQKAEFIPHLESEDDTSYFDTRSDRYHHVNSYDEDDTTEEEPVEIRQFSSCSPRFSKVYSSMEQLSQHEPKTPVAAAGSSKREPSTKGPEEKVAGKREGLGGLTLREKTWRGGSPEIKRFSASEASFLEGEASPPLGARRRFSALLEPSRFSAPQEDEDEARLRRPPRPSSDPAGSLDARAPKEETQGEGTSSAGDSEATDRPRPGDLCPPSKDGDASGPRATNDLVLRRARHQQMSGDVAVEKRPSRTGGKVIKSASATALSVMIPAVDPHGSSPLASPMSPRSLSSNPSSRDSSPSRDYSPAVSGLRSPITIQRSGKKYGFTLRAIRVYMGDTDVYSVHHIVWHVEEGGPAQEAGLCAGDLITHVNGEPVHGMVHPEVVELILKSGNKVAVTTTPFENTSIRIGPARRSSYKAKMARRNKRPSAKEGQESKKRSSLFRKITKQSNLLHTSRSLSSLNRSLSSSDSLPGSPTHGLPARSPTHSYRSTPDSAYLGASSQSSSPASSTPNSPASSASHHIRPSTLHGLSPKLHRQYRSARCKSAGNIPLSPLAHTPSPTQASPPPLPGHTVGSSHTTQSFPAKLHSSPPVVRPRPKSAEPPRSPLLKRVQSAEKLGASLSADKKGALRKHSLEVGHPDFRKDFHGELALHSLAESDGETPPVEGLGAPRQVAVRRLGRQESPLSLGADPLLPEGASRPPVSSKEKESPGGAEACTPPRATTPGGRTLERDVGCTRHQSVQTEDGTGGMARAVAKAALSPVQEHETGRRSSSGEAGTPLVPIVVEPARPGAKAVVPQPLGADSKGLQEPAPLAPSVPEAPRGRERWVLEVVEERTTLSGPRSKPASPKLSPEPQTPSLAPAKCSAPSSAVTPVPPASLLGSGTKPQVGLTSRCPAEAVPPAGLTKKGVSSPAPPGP", "sequence of UniProt P35590 (whole entry, looked up)": "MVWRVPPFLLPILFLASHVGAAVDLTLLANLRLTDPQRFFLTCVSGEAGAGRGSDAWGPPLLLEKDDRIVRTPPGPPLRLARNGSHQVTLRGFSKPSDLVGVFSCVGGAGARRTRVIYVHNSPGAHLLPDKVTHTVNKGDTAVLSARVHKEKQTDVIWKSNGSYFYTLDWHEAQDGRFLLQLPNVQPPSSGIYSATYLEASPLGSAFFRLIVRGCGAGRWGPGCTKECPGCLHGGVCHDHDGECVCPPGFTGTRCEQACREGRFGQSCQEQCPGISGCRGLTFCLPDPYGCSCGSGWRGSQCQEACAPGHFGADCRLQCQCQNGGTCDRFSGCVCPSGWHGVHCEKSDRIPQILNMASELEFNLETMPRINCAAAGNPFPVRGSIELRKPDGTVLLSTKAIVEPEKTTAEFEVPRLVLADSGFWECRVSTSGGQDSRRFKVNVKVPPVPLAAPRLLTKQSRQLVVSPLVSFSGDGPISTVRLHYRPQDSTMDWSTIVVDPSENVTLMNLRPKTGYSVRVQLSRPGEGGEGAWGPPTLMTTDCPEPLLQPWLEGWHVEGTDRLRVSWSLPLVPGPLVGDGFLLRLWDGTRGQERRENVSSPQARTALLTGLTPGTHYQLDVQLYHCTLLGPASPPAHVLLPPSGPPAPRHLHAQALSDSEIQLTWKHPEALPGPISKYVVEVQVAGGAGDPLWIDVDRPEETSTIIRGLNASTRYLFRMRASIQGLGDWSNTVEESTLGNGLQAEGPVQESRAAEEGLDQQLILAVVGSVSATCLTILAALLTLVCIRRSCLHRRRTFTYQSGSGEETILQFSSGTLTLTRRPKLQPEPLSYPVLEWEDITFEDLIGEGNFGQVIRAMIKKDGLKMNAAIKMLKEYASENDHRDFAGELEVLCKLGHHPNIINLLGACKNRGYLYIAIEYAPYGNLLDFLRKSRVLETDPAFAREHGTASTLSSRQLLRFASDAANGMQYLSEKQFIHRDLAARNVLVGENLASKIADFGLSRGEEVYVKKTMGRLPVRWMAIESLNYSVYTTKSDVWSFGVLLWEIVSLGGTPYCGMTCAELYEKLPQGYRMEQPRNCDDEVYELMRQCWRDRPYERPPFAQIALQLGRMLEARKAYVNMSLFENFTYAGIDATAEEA", "sequence of UniProt P08922 (whole entry, looked up)": "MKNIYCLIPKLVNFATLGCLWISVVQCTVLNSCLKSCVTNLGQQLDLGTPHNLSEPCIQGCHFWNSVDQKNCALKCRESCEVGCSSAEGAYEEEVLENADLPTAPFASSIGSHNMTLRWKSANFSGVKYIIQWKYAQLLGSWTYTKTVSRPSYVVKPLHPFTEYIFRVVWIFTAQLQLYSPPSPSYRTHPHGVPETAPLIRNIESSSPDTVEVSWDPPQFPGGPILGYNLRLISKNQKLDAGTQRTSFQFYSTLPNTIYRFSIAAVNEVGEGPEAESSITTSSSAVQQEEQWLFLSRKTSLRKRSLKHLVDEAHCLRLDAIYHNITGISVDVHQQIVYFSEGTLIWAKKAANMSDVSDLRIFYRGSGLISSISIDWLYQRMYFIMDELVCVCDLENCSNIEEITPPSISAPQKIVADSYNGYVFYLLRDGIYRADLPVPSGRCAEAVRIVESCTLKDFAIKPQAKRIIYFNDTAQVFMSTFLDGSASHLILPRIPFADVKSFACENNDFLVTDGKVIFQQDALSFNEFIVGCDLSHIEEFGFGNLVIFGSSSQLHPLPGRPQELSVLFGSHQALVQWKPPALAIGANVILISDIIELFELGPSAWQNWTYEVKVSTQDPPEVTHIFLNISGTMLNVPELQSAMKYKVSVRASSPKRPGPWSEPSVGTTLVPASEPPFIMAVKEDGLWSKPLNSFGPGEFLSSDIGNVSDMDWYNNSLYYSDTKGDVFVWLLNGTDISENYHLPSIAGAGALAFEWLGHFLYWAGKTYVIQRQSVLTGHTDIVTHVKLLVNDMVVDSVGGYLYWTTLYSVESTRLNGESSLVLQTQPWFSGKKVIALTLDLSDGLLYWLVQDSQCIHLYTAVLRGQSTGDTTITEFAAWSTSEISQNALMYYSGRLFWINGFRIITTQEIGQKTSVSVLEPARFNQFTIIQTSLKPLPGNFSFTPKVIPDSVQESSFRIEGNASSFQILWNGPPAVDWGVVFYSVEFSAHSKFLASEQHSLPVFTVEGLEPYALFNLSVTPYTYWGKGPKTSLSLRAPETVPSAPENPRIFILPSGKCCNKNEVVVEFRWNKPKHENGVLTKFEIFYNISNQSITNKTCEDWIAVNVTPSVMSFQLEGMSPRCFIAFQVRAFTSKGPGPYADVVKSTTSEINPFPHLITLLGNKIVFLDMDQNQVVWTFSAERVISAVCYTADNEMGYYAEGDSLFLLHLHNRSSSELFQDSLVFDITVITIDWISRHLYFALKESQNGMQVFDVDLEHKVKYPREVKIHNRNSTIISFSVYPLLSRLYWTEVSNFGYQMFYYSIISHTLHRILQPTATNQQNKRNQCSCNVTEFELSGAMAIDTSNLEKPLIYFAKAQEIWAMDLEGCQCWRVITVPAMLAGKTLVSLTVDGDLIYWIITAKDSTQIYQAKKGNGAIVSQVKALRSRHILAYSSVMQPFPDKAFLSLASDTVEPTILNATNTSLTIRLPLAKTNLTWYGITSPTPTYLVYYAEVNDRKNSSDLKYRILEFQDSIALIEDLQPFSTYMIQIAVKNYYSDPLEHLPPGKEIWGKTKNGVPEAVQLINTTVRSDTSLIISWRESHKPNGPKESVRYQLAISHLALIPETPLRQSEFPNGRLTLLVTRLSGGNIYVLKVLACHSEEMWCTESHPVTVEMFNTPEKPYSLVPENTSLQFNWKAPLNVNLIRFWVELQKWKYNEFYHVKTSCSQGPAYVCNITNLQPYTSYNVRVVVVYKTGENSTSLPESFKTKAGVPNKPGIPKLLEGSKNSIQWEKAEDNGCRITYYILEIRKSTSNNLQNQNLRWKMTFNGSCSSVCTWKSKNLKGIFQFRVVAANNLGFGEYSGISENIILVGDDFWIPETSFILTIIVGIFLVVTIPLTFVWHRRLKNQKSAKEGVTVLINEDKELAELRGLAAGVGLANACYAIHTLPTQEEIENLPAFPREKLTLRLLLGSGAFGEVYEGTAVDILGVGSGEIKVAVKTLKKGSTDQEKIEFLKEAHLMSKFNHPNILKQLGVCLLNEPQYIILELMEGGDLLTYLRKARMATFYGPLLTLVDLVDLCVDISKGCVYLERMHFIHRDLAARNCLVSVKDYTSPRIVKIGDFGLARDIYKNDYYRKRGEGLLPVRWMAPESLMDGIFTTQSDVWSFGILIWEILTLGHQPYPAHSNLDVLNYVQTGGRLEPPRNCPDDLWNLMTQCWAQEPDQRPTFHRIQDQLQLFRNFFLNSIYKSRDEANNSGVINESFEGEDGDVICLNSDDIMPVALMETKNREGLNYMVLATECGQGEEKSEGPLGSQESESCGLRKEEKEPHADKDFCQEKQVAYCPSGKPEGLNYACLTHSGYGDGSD"}
{"data": "Series 1", "target": "Serine/threonine-protein kinase Sgk2 (SGK2, Homo sapiens, UniProt Q9HBY8)", "read-out": "enzyme activity", "mode": "inhibitor", "tested at": "0.5 µM", "baseline": "control", "Residues (Q9HBY8 1-367)": "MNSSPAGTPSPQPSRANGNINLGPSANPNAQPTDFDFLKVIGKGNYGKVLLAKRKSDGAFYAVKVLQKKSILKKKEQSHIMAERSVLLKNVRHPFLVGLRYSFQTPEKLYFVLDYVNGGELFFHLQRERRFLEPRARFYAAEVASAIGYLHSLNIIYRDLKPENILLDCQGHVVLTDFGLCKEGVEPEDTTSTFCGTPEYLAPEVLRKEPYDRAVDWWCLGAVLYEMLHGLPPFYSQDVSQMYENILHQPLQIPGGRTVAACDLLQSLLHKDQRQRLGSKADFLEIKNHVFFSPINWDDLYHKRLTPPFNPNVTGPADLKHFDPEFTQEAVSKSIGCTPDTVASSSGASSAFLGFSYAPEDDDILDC"}
{"Structure (SMILES)": "C[C@@H]1CCN(C(=O)CC#N)C[C@@H]1N(C)c1ncnc2[nH]ccc12", "remaining activity": "104%"}
{"Structure (SMILES)": "CN(C)C[C@H]1CCn2c(c(C3=C(c4cn(C)c5ccccc45)C(=O)NC3=O)c3ccccc32)C1", "remaining activity": "71.7%"}
{"Structure (SMILES)": "N#C/C(=C\\c1ccc(O)c(O)c1)C(=O)NCc1ccccc1", "remaining activity": "101%"}
{"Structure (SMILES)": "N#Cc1c(NC(=O)c2cccc3ccccc23)sc2c1CCCC2", "remaining activity": "101%"}
{"data": "Series 2", "SMILES": "O=C1CCc2cc(Nc3cc(OC4CCOCC4)c([N+](=O)[O-])cc3Cl)ccc2N1", "read-out": "cell-free assay", "method": "competition with immobilised ligand", "tested at": "1 µM"}
{"target": "Proto-oncogene tyrosine-protein kinase ROS (ROS1, Homo sapiens, UniProt P08922)", "remaining binding": "100%"}
{"target": "Microtubule-associated serine/threonine-protein kinase 1 (MAST1, Homo sapiens, UniProt Q9Y2H9)", "remaining binding": "100%"}
{"target": "Tyrosine-protein kinase receptor Tie-1 (TIE1, Homo sapiens, UniProt P35590)", "remaining binding": "100%"}
{"data": "Mixed results"}
{"Molecule": "CCDC86 (Homo sapiens, UniProt Q9H6F5)", "tested on": "MRTO4 (Homo sapiens, UniProt Q9UKD2)", "test": "cross-linking MS", "system": "cell fractions", "conditions": "added: DSSO", "quantity": "cross-linked residues", "result": "K229 to K94"}
{"Molecule": "CCC[C@@H]1NC(=O)CSC[C@@H](C(=O)OCC)N(C)C(=O)[C@H](CC(C)C)NC(=O)[C@H](C)N(C)C(=O)[C@H](CC(C)C)NC(=O)[C@H](C)N(C)C(=O)[C@H]2CCCN2C(=O)[C@H](CC(C)C)NC(=O)CN(C)C1=O", "system": "hydrocarbon/water", "quantity": "logD", "result": 1.45}
{"Molecule": "RANBP10 (Homo sapiens, UniProt Q6VN20)", "tested on": "GID8 (Homo sapiens, UniProt Q9NWU2)", "test": "cross-linking MS", "system": "cell fractions", "conditions": "added: DSSO", "quantity": "cross-linked residues", "result": "K293 to K48"}
{"Molecule": "TTC7B (Homo sapiens, UniProt Q86TV6)", "tested on": "HYCC1 (Homo sapiens, UniProt Q9BYI3)", "test": "cross-linking MS", "system": "cell fractions", "conditions": "added: DSSO", "quantity": "cross-linked residues", "result": "K427 to Y272"}
{"note": "Some of these lines once more (mixed results):"}
{"Molecule": "RANBP10 (Homo sapiens, UniProt Q6VN20)", "tested on": "GID8 (Homo sapiens, UniProt Q9NWU2)", "test": "cross-linking MS", "system": "cell fractions", "conditions": "added: DSSO", "quantity": "cross-linked residues", "result": "K293 to K48"}
